Published values gathered from unrelated publications.
Each numbered part is a random draw from the data of one study; scales do not carry over between parts. Substitutions count along the parent as printed.

Series 1
Target: Ras GTPase-activating protein-binding protein 1, RRM domain (G3BP1, Homo sapiens, UniProt Q13283)
UniProt Q13283, sequence (whole entry, looked up): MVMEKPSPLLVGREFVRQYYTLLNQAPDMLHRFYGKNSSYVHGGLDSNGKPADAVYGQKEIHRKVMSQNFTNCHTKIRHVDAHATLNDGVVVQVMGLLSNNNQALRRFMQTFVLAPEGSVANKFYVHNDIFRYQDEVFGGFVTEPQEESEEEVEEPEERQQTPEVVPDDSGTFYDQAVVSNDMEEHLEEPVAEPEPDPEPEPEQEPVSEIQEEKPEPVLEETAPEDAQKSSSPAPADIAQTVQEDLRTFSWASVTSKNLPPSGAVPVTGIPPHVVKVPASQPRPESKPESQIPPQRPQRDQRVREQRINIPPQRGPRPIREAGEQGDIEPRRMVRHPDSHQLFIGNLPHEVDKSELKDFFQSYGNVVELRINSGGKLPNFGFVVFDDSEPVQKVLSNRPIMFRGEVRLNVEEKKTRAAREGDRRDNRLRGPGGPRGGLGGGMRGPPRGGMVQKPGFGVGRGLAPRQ
Method: RNA Bind-n-Seq
Molecule type: RNA
Matrix: in vitro
Concentration: 1 µM
Setting: whole 134-nt RNA, ends assumed
With: 150 mM KCl
Reference: input library
Direction: higher = stronger binding
Constant ends, left off below: GGGAGUUCUACAGUCCGACGAUC … UGGAAUUCUCGGGUGUCAAGG
| Oligonucleotide | log2 enrichment |
| --- | --- |
| CCUGUGCUACACAUCGUAUGUACCGAAUCGGGGCCCCCCGGGGCCCCCCGGCCCCCCGGGGAAAGUAUUAUGUUACGCCGUUCGGAUCUG | -0.646 |
| CCUCAAGUCCUGUGCUACACAUCGUAUGUACCGAAUCGGAAGGAAGGAAGGGAAAGUAUUAUGUUACGCCGUUCGGAUCUGCACUUCCAG | -0.225 |
| UCCUCAAGUCCUGUGCUACACAUCGUAUGUACCGAAUCGGGUGGGUGGUGGAAAGUAUUAUGUUACGCCGUUCGGAUCUGCACUUCCAGC | -0.146 |
| GCAGGAAGUAAAAACAAAUGGAAAUGCUUCGGAUAGUGGCAGGGGUGGGGGUUGCUAAGGAAAGGGUGGGAUGGGAGUGGAUAAAGAGUU | 0.959 |
| UGGGAGGUGGAUUUUGUUUAUUUUUUUAACUCAUUUCCAGGGGUGGGAAUUUUUUUUUAAUAUGUGUCAUGAAUAAAGUUGUUUUUGAAA | 2.02 |
| UCAAGUCCUGUGCUACACAUCGUAUGUACCGAAUCGGUUUUUGGAGGUUUUUGGAAAGUAUUAUGUUACGCCGUUCGGAUCUGCACUUCC | -0.191 |
| UGUUCUGCAGAGGGGCGGUGUCAUUACUGAUGAAGAGGAAACCUCUAAGAAGAUAGCUGACCAGUUGGACAACAUUGUGGACAUGCGCGA | -0.186 |
| GCAGGAAGUAAAAACAAAUGGAAAUGCUUCGGAUAGUGGCAGGGGUUGGGGUUGCUAAGGAAAGGGUGGGAUGGGAGUGGGUAAAGAGUU | 0.594 |
| UCCUGUGCUACACAUCGUAUGUACCGAAUCGGGUUUUUUUGGGUUUUUGGGAAAAAGGGAAAGUAUUAUGUUACGCCGUUCGGAUCUGCA | -0.0331 |
| ACCAUGCAGGUGGGCAUCUUUGGGAAGUGGGGCAAGGGGGGGAUAGGGAGGGGGGUAACACUUUGGGAACAGGUGGUCCCAAAUCGUUUC | -0.484 |
| CACAGACAACACGCACCCACACAGACACAGAGGGAAGGGGUUGGGAUGGGGACAGGGCGCACAGCAGGGCGGGGUAGGACCCCAGCCCCU | 0.0231 |
| ACCAUGCAGGUGGGCAUCUUUGGGAAGUGGGGCAAGGGGGGGAUAGGGAGAAAGGUAACACUUUGGGAACAGGUGGUCCCAGGUCGUUUC | -0.342 |
| CCUCAAGUCCUGUGCUACACAUCGUAUGUACCGAAUCGGUGGGGUGGGGUGGAAAGUAUUAUGUUACGCCGUUCGGAUCUGCACUUCCAG | -0.204 |
| UAACUUUAGAGGAGGAUCUGAUGGAUAUGGCAGUGGACGUGGAUUUGGGGAUGGCUAUAAUGGGGAUGGAGGAGGACCUGGAGGUGGCAA | -0.203 |

Series 2
Target: RNA binding protein fox-1 homolog 2, RRM domain, GST-SBP tag (RBFOX2, Homo sapiens, UniProt O43251-10, residues 100-194)
Method: RNA Bind-n-Seq
Molecule type: RNA
Matrix: in vitro
Concentration: 365 nM
Setting: natural RNA segment, single round, ends assumed
Reference: no-protein control
Direction: higher = stronger binding
Constant ends, left off below: GGGAGUUCUACAGUCCGACGAUC … UGGAAUUCUCGGGUGCCAA
Construct (chain): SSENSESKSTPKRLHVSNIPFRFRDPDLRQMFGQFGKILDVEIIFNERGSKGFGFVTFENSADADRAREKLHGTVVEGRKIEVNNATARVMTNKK
| Oligonucleotide | RBNS enrichment (R) |
| --- | --- |
| ACUCUCUUCUCCUCAGACACAGUGGCACUGCUUAUCUCCAAAUGGUGUGAUCGUCUCCUCAGUGAGCGGCGGCUCCCACUGCGCUGUGGGUAGUGUGUGACUGUGGCUGU | 0.431 |
| CACGAAGUCCCAAUCUACCCUUCCCUCAACCUCUUUCUCAAGGAGGAAACUCCCCACCUCACCCUGACAACCCUUGAUGUUUCCCAAAGUCUUUAGACAGCUGUGUGCAU | 0.906 |
| UCCUUACCCAGGGUAUCAUAGUUCUAAGAAUGAAAGCACCUUAAAUGCCUUGCACAGAACCAAUUUUUUUUAACUACUGGCCUAUUUUAAUGGUGGUAAAGAGCAUGUUU | 17.1 |
| CUUCAAACCACAUGAGAUCUCUGCCACCCACCCACAAUCAAGCCCUAUAUUCCCAAGGAGGCUGACUCCGGGGGCCCUUCCCCCCAGGCCAGCAAUGUAUUCCGGGGAUG | 0.325 |
| CAAUGGGGCUACUUUUCUCCUGAAUAGCUCCUCUGGGCUUGUUGCAGUUCUAGUUUUCCCAGUAGUUCCAUGGCAGGUUCAACCUCUCAGUGUCCUGAAAAAUGGAACCA | 0.32 |
| CCGCUGGUGAAUGGAGUACCUAAAUAAGCUACAUAAUUCCGAAGUUAUAUUUCCUCUACCAUUUCCGUAAUUCUUACUCCAUUUUAGAAAACUUUGUUAGGCCAAAGACA | 0.458 |
| UCAGAACCUGUGCACUCAUUUGCCCAGCAUUUCCUAGUGUCUAUUGGAUCAGAAACUGGUUUUACCCGGACAUCACAAUCGAGGCCUUCAAAGCAGCGGGGAGUCGGGCU | 0.395 |
| UUGACUUUUUUUUUUAAAUUAAAGAUUGGGAAUGUAUGUGAGAGUAUGCAUAUGUAUGGGUGUGUGUGUGUGCGCGCAAUCAAACUGUGGUGUAAAUAGAUUCUCAGUGA | 0.448 |
| CCUGUUCUGUGGCAUUCAUGAAAAACAAGUUGAAGAAUUUGUUUAUCUGGAAUUGUUUCUAAAUAUAAGUCAUUUGUAGCAAGACUUUGGAAGCAUUCUUUCUUAAACAU | 0.822 |
| AAGCGAUUCUCCUACCUCAGCCUCCUCAGUAGCUGAGAUUACAGGCAUGCACCACCAUGCCCGGCUAAUUUUUUUGUGUUUUUAGUAGAGAUGGGGUUUCACCGUGCUGG | 0.748 |
| UUCAUUGAAAAACCACACGGCAGAUGAACAACCUAUGGCCAAAACGUCCAAUAAAUGUCUCUACCGCAACCUGUCUGUGUCCUUGAUGCCUAGCGCUACCUUCCUCUGGU | 0.463 |
| AGAAGAAUUGGAGCCAGACUUUAGUGAACUCAGCUCAGAGUUGUAAGGACCAGCACACUGGUGGCCAUUUUCUGCACAAGCAAAUGGAAUUGCUUUUUUUCAGCAUCCCA | 0.582 |

Series 3
Target: Histone acetyltransferase KAT6A, winged helix 2, GST fusion (KAT6A, Homo sapiens, UniProt Q92794, residues 85-181)
Method: protein binding microarray
Molecule type: double-stranded DNA, one strand shown
Matrix: in vitro
Concentration: not given
Setting: 8-mer, flanks averaged, mean of 2 arrays, mostly near background
Reference: not given
Direction: higher = stronger binding
Target sequence (chain): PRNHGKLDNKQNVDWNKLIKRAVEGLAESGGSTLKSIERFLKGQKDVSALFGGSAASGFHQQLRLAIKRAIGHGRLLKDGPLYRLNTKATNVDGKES
| Oligonucleotide | E-score |
| --- | --- |
| ATGATTTA | 0.0469 |
| CACCCTGG | -0.0948 |
| CTGAATGC | 0.0575 |
| GGGGTGGA | -0.0901 |
| AGGACTGG | -0.104 |
| GGAGTCAA | -0.0281 |
| TGGTCAAA | 0.0301 |
| CGTGGCTA | 0.0112 |
| AGTCCTAT | -0.201 |
| GGAGCCCC | 0.0215 |
| ATTACTAA | -0.0319 |
| GGAACGCA | 0.157 |
| AGAAATGA | 0.13 |
| CTAGTGGA | -0.152 |
| ACAACGGG | -0.0582 |
| ACAGCTCA | -0.101 |
| CATTGCAC | 0.108 |
| ACTTTGTG | 0.131 |
| ATCCATAC | -0.0578 |
| ACCCACCA | -0.0601 |
| CCGGTTAC | 0.0318 |
| TATCTGAA | 0.137 |
| TCATATAA | -0.0354 |
| CAAGCGTG | 0.0368 |
| TCGCTACA | -0.291 |

Series 4
Target: CCNE2, cyclin fold, Cln2 fusion (human)
Method: yeast growth competition, sequencing
Matrix: yeast
Setting: strong parent motif
Reference: not given
Direction: higher = stronger binding
Starting sequence: DOT1L docking peptide (human); SEAKRRIVFTITT; partner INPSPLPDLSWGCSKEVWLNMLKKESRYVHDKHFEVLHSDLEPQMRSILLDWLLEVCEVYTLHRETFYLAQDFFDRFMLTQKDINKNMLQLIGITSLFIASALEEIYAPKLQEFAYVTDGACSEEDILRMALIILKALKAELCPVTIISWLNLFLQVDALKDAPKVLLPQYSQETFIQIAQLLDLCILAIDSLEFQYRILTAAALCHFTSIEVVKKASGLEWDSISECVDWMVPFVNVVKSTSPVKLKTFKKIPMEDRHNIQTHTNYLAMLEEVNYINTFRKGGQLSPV
| Change | normalised enrichment score |
| --- | --- |
| K4A | 0.702 |
| E2A | 1.52 |
| V8A | 0.552 |
| T12A | 1.04 |
| R5A | -0.0265 |
| S1A | 0.903 |

Series 5
Target: ABI1, truncated, D143A, DHFR fusion (Arabidopsis thaliana)
Method: DHFR PCA, deep sequencing
Matrix: yeast
Setting: methotrexate growth selection, single substitutions
With: (+)-ABA 0.39 µM
Reference: wild-type fitted maximum
Direction: higher = stronger binding
Starting sequence: PYL1, truncated, DHFR fusion (Arabidopsis thaliana); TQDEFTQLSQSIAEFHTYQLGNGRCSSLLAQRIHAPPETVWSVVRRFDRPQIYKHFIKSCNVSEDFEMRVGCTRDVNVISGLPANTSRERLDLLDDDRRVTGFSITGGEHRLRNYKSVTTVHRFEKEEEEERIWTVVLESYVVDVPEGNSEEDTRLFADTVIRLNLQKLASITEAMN
| Change | relative binding score |
| --- | --- |
| C72S | 41.1% |
| G21E | 58.1% |
| A35Y | -15.7% |
| H122Q | -3.31% |
| F103R | -2% |
| E130G | 50.1% |
| T120Q | -11.6% |
| S11H | 32.1% |
| D65E | 21.6% |
| Q19W | -1.22% |
| I33V | 13.5% |
| Y53P | -9.34% |
| S87I | 52.9% |
| E109W | -11.7% |
| F66T | 10.4% |
| F15I | 0.624% |

Series 6
Target: CREB5, bZIP domain (human)
Method: DHFR protein complementation
Matrix: yeast
Setting: single substitutions, most at no-binding floor
Reference: wild-type JUN-FOS pair
Direction: higher = stronger binding
Starting sequence: JUN, bZIP domain (human); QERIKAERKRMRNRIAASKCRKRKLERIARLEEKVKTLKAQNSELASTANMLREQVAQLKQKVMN; partner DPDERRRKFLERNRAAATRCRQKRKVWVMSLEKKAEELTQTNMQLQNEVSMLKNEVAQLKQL
| Change | binding fitness [natural log] |
| --- | --- |
| Q55G | -1.31 |
| E33Y | -0.944 |
| R30G | -0.267 |
| E44A | -0.355 |
| L31Y | -0.824 |
| A29G | -0.476 |
| Q58S | -0.18 |
| R53N | -1.13 |
| A46F | -0.475 |
| Q41G | -1.1 |
| K39H | -0.329 |
| E32K | -0.233 |
| A46S | -0.308 |
| R30A | -0.0164 |
| L31Q | -1.29 |
| M51W | -0.5 |

Some of these lines once more (series 3):
| Oligonucleotide | E-score |
| --- | --- |
| GGAGTCAA | -0.0281 |
| TCGCTACA | -0.291 |
| ATGATTTA | 0.0469 |
| ATCCATAC | -0.0578 |
| GGAGCCCC | 0.0215 |
| TGGTCAAA | 0.0301 |
